Measurements collected from several papers.
± gives the spread as reported.
Chain of UniProt P14868 (whole entry, looked up): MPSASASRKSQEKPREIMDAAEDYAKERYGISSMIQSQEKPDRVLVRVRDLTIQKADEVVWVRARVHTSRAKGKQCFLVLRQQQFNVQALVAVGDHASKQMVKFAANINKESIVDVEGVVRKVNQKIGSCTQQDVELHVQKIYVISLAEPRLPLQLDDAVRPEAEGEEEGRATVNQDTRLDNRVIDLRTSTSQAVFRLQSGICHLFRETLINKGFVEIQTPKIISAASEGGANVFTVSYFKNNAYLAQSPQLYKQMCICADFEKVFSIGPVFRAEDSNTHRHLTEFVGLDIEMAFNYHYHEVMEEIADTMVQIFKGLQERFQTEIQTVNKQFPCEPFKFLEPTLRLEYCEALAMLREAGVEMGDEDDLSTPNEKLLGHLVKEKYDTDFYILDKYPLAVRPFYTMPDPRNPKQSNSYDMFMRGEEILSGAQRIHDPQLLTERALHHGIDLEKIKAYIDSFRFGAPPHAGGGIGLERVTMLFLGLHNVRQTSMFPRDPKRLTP
Chain of UniProt P32247 (whole entry, looked up): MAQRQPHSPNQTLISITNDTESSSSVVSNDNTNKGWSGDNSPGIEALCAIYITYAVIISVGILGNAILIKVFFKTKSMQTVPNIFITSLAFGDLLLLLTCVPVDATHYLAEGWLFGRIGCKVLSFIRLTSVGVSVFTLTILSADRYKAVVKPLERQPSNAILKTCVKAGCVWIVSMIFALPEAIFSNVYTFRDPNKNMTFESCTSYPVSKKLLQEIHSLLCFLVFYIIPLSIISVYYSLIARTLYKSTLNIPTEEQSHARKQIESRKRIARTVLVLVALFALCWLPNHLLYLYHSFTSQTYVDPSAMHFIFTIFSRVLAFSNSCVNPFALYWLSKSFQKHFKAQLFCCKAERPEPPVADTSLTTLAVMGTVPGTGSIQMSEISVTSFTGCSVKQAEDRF

Compound = CC(=O)N1CCC(C(=O)N2CCN3C(=O)c4cc(-c5ccccc5)ccc4NC(=O)C3C2)CC1 (stereo not drawn); tested on = Escherichia coli; system = WP2 uvrA; setting = 50 µg/plate, with rat liver S9; how to read = relative to: vehicle; quantity = revertant fold increase; result = 1.3
Compound = C[C@@H](NC(=O)N1C(=O)[C@H](Cc2ccnc(N)c2)[C@H]1C(=O)O)C1CCCCC1; system = healthy adult Chinese volunteers; setting = continuous intravenous infusion, 0.6 mg/kg/h, 5-day infusion, CTCAE 5.0 grading; quantity = drug-related decreased neutrophil; result = 0%
Compound = COc1ccc2c(c1OC)C(=O)c1c(cc(C)c(O)c1OC)C2=O; tested on = HK-2 co-cultured with HepaRG; test = MTT; setting = 66.67 µM, 24 h; how to read = relative to: untreated control; quantity = cell viability; result = 79.6 ± 9.01%
Compound = COc1ncccc1-c1cnn2ccc(N3CCN(C(=O)OC(C)C)CC3)nc12; system = mouse nerve ligation model, plasma; setting = oral, 10 mg/kg, 30 min after last dose, repeat dosing day 1; quantity = drug concentration; result = 3.2 µM
Compound = CCc1ccc(CC/C=C/c2ccc3c(c2)C(=O)CC3)cc1; system = Sprague-Dawley rat, female; setting = oral, 450 mg/kg/day, 14 days; quantity = Reticulocyte percentage; result = 2.55%
Compound = CC(C)C[C@@H](NC(=O)[C@H](Cc1ccccc1)NC(=O)CNC(=O)[C@@H](C)NC(=O)[C@H](Cc1ccc(O)cc1)NC(=O)[C@@H]1CCCN1C(=O)[C@@H]1CCCN1C(=O)c1ccc[n+](C)c1)C(=O)O; test = HPLC-UV; system = rat whole brain homogenate; setting = 37 °C; quantity = half-life; result = 9 min
Compound = O=C1c2ccccc2C(=O)c2ccccc21; tested on = HepaRG co-cultured with HK-2; test = MTT; setting = 33.33 µM, 48 h; how to read = relative to: untreated control; quantity = cell viability; result = 79.7 ± 11.8%
Compound = COc1cc2c(Oc3ccc4[nH]c(C)cc4c3F)ccnc2cc1OCC1(N)CC1; system = paediatric recurrent refractory sarcoma; setting = 10 mg; quantity = grade 3 Rash; result = 0%
Compound = NCCCC[C@@H]1NC(=O)[C@@H](Cc2c[nH]c3ccccc23)NC(=O)[C@H](c2ccccc2)NC(=O)[C@@H]2C[C@@H](OC(=O)NCCN)CN2C(=O)[C@H](Cc2ccccc2)NC(=O)[C@H](Cc2ccc(OCc3ccccc3)cc2)NC1=O; system = healthy volunteers, male; setting = 600 µg twice daily, 0.0 h, post hoc; quantity = placebo-corrected QTcF change; result = 6.8 ms
Compound = CO[C@H]1C[C@@H]2CC[C@@H](C)[C@@](O)(O2)C(=O)C(=O)N2CCCC[C@H]2C(=O)O[C@H]([C@H](C)C[C@@H]2CC[C@@H](OC(=O)NCCOCCOCCOCCOCCOCCOCCOCCOCCC(=O)N3CCc4cc(Cn5nc(-c6ccc7oc(N)nc7c6)c6c(N)ncnc65)ccc4C3)[C@H](OC)C2)C[C@@H](O)[C@H](C)/C=C(\C)[C@@H](O)[C@@H](OC)C(=O)[C@H](C)C[C@H](C)/C=C/C=C/C=C/1C; test = dose-escalation trial; system = patients with advanced solid tumours; setting = intravenous, all doses weekly, any grade; quantity = decreased appetite leading to dose reduction; result = 1.8%
Compound = COc1cc(Nc2ncc(F)c(Nc3ccc4c(n3)NC(=O)C(C)(C)O4)n2)cc(OC)c1OC; tested on = BRS3 (Homo sapiens, UniProt P32247); quantity = IC50; result = > 10 µM
Compound = COc1ccc2nc3cc(Cl)ccc3c(Nc3cc(CN4CCCC4)c(O)c(CN4CCCC4)c3)c2n1; system = mouse, blood; setting = intraperitoneal, 28 mg/kg; quantity = monocyte count; result = 0.2 10⁹/L
Compound = COc1ccc(-c2c(-c3ccc(C#N)c(F)c3)nc(N3CCC(N)CC3)n(C)c2=O)cc1F; test = measured: upper respiratory tract infection; system = human patients; setting = oral, 60 mg, dose expansion; quantity = serious TEAE incidence; result = 5%
Compound = Cc1cn([C@H]2O[C@@H](CO[P@@](=O)(N[C@@H](C)C(=O)OC(C)C)Oc3ccccc3)[C@H](O)[C@H]2F)c(=O)[nH]c1=O; test = measured: Nausea; system = human; setting = 10 mg; quantity = patients with TEAE; result = 0%
Compound = C[C@H]1CN(c2n[nH]c3nc(N[C@H]4CC[C@H](NS(=O)(=O)CCC(F)(F)F)CC4)ncc23)CCO1; tested on = DARS1 (Homo sapiens, UniProt P14868); test = Kinobeads competition, measured: DARS; setting = 0.8 µM, unit not given; how to read = relative to: vehicle; quantity = remaining binding; result = 1.21
Compound = O=C(Nc1ccccc1)C1CCN(C(=O)Oc2cccnc2)CC1; system = healthy women; setting = oral, 60 mg, 7 days; quantity = adverse event Constipation; result = 0%
Compound = CC[C@H](C)[C@@H]1NC(=O)[C@@H]2CCCN2C(=O)[C@H](CC(C)C)NC(=O)[C@H](CC(C)C)NC(=O)CNC(=O)[C@@H](NC(=O)[C@@H](NC(=O)[C@H](CC(=O)O)NC(=O)CNC(=O)[C@@H](NC(=O)[C@H](C)NC(=O)CNC(=O)[C@H](CCCCN)NC(=O)[C@H](CC(C)C)NC(=O)[C@H](CC(C)C)NC(=O)[C@H](CCCCN)NC(=O)CNC(=O)[C@@H](NC(=O)[C@@H](N)CC(C)C)C(C)C)C(C)C)C(C)C)CSSC[C@@H](C(=O)O)NC1=O; test = RNA-seq, measured: Il12rb1 mRNA; system = mouse traumatic brain injury, frontal cortex and hippocampus; setting = dose not given; how to read = relative to: TBI plus compound vs TBI; quantity = log2 fold change; result = -2.05
Compound = CC(C)CC(=O)OC[C@H]1O[C@@](C#N)(c2ccc3c(N)ncnn23)[C@H](O)[C@@H]1O; system = Rats plasma; setting = 5 µM, 15 min; quantity = remaining compound; result = 0.04 ± 0.006%
Compound = O=c1ccc2ccccc2o1; tested on = NHEK; test = AhR translocation; setting = concentration not given, 1 h; quantity = chance response; result = 0.8%
Compound = CC(C)(O/N=C(\C(=O)N[C@@H]1C(=O)N2C(C(=O)[O-])=C(C[n+]3ccccc3)CS[C@H]12)c1csc(N)n1)C(=O)O; test = population PK model, bootstrap; system = human, plasma; setting = intravenous, dose not given, bootstrap median; quantity = central volume of distribution; result = 8.2 L
Compound = Clc1ccc(Cl)c(-c2cc(Cl)ccc2Cl)c1; system = Sprague Dawley rat, liver; setting = intraperitoneal, 100 mg/kg; quantity = organ weight; result = 7.22 g

Excerpt of the above:
Compound = COc1ccc2nc3cc(Cl)ccc3c(Nc3cc(CN4CCCC4)c(O)c(CN4CCCC4)c3)c2n1; system = mouse, blood; setting = intraperitoneal, 28 mg/kg; quantity = monocyte count; result = 0.2 10⁹/L
Compound = COc1cc(Nc2ncc(F)c(Nc3ccc4c(n3)NC(=O)C(C)(C)O4)n2)cc(OC)c1OC; tested on = BRS3 (Homo sapiens, UniProt P32247); quantity = IC50; result = > 10 µM
Compound = COc1cc2c(Oc3ccc4[nH]c(C)cc4c3F)ccnc2cc1OCC1(N)CC1; system = paediatric recurrent refractory sarcoma; setting = 10 mg; quantity = grade 3 Rash; result = 0%
